# Measurements collected from several papers.
# Numbered parts are unrelated; each lists some results of a single study.
# Chain of UniProt P00519 (whole entry, unmodified, looked up): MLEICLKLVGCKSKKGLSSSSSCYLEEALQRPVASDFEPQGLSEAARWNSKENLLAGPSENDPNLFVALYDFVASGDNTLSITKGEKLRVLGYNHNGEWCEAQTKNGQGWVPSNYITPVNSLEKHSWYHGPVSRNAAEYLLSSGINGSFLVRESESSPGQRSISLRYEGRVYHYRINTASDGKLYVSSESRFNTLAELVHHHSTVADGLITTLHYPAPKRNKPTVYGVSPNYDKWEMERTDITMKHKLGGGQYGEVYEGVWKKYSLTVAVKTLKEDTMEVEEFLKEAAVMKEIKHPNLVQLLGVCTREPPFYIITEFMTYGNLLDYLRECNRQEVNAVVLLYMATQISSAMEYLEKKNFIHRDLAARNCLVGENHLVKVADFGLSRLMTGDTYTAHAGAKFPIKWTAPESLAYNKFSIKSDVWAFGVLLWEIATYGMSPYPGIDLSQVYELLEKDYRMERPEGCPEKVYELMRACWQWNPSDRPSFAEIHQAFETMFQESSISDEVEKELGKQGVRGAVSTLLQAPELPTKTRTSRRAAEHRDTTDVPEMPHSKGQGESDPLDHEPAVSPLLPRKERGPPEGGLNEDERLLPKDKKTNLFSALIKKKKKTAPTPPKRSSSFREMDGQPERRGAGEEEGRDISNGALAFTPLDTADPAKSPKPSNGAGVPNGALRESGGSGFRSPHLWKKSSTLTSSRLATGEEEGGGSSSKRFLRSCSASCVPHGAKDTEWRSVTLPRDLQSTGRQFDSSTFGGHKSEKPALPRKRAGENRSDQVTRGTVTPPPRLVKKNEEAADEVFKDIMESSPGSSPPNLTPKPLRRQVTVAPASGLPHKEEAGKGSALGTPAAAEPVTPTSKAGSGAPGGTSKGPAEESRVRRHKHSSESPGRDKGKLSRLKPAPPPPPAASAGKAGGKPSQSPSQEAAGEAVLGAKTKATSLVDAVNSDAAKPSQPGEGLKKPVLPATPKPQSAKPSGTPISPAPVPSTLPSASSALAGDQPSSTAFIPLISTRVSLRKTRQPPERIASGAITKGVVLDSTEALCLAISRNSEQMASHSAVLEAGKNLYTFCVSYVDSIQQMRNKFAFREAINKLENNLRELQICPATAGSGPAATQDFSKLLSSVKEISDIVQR
# Chain of UniProt Q8WTQ7 (whole entry, looked up): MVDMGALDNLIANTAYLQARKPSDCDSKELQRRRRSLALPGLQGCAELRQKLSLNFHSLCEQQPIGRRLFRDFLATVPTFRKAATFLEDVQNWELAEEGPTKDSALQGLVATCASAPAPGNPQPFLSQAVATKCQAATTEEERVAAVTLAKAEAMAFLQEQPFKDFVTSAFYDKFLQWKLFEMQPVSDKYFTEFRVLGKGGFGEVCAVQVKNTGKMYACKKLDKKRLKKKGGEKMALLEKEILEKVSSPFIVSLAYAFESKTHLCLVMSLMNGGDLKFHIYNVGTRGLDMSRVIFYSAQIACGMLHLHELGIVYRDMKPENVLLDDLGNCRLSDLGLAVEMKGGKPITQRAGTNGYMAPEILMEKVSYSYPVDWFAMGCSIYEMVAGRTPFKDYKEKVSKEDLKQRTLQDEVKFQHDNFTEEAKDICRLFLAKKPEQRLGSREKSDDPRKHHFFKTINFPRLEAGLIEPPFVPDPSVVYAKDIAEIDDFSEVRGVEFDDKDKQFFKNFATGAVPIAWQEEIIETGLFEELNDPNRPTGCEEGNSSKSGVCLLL
# Chain of UniProt Q06187 (whole entry, looked up): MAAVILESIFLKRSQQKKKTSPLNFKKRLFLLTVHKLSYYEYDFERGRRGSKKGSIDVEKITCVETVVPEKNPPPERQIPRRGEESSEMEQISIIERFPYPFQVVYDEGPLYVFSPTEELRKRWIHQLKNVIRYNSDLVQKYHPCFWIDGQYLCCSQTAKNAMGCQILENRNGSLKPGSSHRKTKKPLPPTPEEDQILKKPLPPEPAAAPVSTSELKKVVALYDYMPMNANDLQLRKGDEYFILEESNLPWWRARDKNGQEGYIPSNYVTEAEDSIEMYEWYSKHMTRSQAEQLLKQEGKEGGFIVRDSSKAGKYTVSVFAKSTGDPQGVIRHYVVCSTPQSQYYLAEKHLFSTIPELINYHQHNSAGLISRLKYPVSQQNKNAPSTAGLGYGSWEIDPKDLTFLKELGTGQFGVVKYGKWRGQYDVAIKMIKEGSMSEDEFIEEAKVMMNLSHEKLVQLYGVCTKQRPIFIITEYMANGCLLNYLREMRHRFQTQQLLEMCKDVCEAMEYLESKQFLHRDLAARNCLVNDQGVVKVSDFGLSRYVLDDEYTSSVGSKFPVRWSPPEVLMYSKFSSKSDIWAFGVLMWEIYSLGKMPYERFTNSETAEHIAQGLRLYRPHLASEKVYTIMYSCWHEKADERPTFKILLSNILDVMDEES
# Chain of UniProt P49336 (whole entry, looked up): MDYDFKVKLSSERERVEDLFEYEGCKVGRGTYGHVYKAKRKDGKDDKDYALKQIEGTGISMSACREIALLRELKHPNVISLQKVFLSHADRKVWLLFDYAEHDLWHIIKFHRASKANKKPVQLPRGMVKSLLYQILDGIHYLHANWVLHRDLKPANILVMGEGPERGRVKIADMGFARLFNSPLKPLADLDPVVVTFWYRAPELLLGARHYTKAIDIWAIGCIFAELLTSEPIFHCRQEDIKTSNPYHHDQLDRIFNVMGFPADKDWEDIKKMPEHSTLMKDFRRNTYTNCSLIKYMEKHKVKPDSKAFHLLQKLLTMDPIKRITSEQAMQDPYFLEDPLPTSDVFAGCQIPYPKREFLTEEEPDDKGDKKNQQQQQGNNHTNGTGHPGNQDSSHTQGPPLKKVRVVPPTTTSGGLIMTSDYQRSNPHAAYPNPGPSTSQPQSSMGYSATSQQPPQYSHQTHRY
# Chain of UniProt P35590 (whole entry, looked up): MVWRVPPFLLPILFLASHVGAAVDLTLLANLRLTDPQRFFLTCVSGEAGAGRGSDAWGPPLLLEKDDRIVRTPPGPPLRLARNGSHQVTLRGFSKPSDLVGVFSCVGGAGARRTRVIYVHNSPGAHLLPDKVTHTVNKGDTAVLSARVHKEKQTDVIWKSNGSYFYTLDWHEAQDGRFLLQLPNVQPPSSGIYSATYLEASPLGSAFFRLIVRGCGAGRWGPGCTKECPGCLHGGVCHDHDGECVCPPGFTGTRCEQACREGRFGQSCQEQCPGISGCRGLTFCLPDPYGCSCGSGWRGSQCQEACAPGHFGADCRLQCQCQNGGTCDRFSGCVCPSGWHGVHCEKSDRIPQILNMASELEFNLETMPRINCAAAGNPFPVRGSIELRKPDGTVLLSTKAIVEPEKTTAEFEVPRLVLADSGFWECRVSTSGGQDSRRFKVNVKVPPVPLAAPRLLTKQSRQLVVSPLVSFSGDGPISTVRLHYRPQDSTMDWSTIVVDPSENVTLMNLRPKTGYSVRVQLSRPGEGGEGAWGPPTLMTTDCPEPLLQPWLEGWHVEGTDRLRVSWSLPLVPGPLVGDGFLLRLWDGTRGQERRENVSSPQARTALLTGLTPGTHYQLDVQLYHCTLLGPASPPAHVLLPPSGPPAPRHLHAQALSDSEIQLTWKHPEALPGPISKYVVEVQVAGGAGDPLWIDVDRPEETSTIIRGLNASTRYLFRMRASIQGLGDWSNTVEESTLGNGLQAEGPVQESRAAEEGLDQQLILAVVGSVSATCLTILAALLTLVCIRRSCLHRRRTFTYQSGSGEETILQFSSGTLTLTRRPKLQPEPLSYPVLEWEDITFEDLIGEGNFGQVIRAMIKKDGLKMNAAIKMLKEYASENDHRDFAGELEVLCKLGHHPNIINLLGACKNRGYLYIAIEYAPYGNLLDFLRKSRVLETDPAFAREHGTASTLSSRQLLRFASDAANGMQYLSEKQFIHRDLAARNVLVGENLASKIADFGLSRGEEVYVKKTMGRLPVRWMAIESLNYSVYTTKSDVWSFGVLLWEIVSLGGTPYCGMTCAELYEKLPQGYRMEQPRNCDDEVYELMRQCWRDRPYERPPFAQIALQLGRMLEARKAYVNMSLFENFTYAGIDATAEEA
# Chain of UniProt Q00526 (whole entry, looked up): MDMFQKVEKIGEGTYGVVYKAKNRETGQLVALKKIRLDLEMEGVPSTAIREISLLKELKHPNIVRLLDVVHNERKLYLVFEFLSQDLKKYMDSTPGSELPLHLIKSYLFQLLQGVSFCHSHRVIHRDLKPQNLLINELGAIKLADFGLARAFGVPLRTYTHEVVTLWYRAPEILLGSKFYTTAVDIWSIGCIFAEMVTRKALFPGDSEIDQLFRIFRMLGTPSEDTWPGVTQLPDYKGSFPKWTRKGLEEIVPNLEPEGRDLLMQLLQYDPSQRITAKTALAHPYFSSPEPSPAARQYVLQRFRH

# Set 1 — cell line: mouse MPNST tumor cells; method: high-content immunofluorescence imaging; item: nuclear SOX9; tested at: 10 µM; time: 12 h; setting: mean of 2 replicates; baseline: DMSO control; direction: higher = more nuclear SOX9
Compound,nuclear SOX9 intensity
CC1(C)CCC(C)(C)c2cc(C3(c4ccc5cc(C(=O)O)ccc5c4)SCCS3)ccc21,119 % of DMSO
Nc1ncnc(Nc2ccc(OCc3ccccc3)c(Cl)c2)c1/C=N/OCCN1CCOCC1,184 % of DMSO
Cc1ccc(-c2cc(C(=O)Nc3cccnc3)c3cc(Br)ccc3n2)cc1,95 % of DMSO
CC(C)(C)NC[C@H](O)COc1cccc2c1CCCC2=O,103 % of DMSO
C[C@@H]1C[C@H]2[C@@H]3C[C@H](F)C4=CC(=O)C=C[C@]4(C)[C@@]3(F)[C@@H](O)C[C@]2(C)[C@@]1(O)C(=O)CO,75.9 % of DMSO

# Set 2 — Compound: CSc1cccnc1N1CCN(Cc2nc3ccccc3[nH]2)CC1; tested at: 1 µM
target,effect on,method,setting,baseline,remaining binding
"Non-receptor tyrosine-protein kinase TYK2, JH2 (TYK2, Homo sapiens, UniProt P29597)",cell-free assay,competition with immobilised ligand,,,84%
"TLK1 (Homo sapiens, UniProt Q9UKI8)",cell-free assay,competition with immobilised ligand,,,100%
"PHKG1 (Homo sapiens, UniProt Q16816)",cell-free assay,competition with immobilised ligand,,,96%
"CSK (Homo sapiens, UniProt P41240)",cell-free assay,competition with immobilised ligand,,,100%
"MTOR (Homo sapiens, UniProt P42345)",cell-free assay,competition with immobilised ligand,,,100%
"PDPK1 (Homo sapiens, UniProt O15530)",cell-free assay,competition with immobilised ligand,,,99%
"FYN (Homo sapiens, UniProt P06241)",cell-free assay,competition with immobilised ligand,,,100%
"PIK3CA (Homo sapiens, UniProt P42336, C420R)",cell-free assay,competition with immobilised ligand,,,100%
"BTK (Homo sapiens, UniProt Q06187)",cell-free assay,competition with immobilised ligand,,,79%
"Tyrosine-protein kinase ABL1, phosphorylated (ABL1, Homo sapiens, UniProt P00519, F317L)",cell-free assay,competition with immobilised ligand,,,100%
"GRK7 (Homo sapiens, UniProt Q8WTQ7)",cell-free assay,competition with immobilised ligand,,,87%
"NEK1 (Homo sapiens, UniProt Q96PY6)",cell-free assay,competition with immobilised ligand,,,100%
"MAP3K2 (Homo sapiens, UniProt Q9Y2U5)",cell-free assay,competition with immobilised ligand,,,82%
"MAP3K10 (Homo sapiens, UniProt Q02779)",cell-free assay,competition with immobilised ligand,,,100%
"EPHA6 (Homo sapiens, UniProt Q9UF33)",cell-free assay,competition with immobilised ligand,,,100%
"TIE1 (Homo sapiens, UniProt P35590)",cell-free assay,competition with immobilised ligand,,,100%
"CDK3 (Homo sapiens, UniProt Q00526)",cell-free assay,competition with immobilised ligand,,,100%
"TBK1 (Homo sapiens, UniProt Q9UHD2)",cell-free assay,competition with immobilised ligand,,,100%
"ABL1 (Homo sapiens, UniProt P00519, F317I)",,KINOMEscan,"F317I mutant, nonphosphorylated",control,100%
"NEK9 (Homo sapiens, UniProt Q8TD19)",cell-free assay,competition with immobilised ligand,,,100%
"CDK8 (Homo sapiens, UniProt P49336)",cell-free assay,competition with immobilised ligand,,,87%
"Tyrosine-protein kinase JAK2, JH1 (JAK2, Homo sapiens, UniProt O60674)",cell-free assay,competition with immobilised ligand,,,65%
"MAP3K13 (Homo sapiens, UniProt O43283)",cell-free assay,competition with immobilised ligand,,,82%
"EPHA3 (Homo sapiens, UniProt P29320)",cell-free assay,competition with immobilised ligand,,,100%
"PRKD1 (Homo sapiens, UniProt Q15139)",cell-free assay,competition with immobilised ligand,,,100%

# Set 3 — effect on: enzyme activity; mode: inhibitor; tested at: 0.5 µM; baseline: control
# Target: TGF-beta receptor type-2 (TGFBR2, Homo sapiens, UniProt P37173)
# Chain of UniProt P37173 (whole entry, looked up): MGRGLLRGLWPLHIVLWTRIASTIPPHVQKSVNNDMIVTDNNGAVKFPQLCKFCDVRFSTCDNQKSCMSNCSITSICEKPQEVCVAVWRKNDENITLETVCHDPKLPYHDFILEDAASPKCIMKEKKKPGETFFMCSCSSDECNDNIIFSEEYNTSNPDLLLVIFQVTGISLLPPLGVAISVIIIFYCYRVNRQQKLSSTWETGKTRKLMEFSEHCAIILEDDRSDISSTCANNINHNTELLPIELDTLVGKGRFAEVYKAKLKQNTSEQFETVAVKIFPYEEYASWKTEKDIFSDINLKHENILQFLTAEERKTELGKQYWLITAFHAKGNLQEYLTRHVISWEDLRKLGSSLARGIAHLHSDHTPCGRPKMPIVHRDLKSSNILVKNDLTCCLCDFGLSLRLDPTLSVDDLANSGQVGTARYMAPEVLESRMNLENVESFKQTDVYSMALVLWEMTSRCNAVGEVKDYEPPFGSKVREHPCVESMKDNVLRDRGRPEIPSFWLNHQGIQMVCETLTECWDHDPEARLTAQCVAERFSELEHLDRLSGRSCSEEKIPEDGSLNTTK
SMILES,remaining activity [%]
N#CC(C#N)=C(N)/C(C#N)=C/c1ccc(O)cc1,113
COc1cc2ncnc(Nc3ccc(F)c(Cl)c3)c2cc1OCCCN1CCOCC1,93.8
Oc1ccc(-c2nc(-c3ccncc3)c(-c3ccc(F)cc3)[nH]2)cc1,127
Cc1nc(-c2ccccc2)c(-c2ccncc2)o1,133
CC(C)[C@H](CO)Nc1nc(Nc2cc(N)cc(Cl)c2)c2ncn(C(C)C)c2n1,93.5
Cn1sc(=O)n(Cc2ccccc2)c1=O,123
O=S(=O)(c1cccc2cnccc12)N1CCCNCC1,97
Nc1ncnc2n[nH]c(Nc3ccc(F)cc3)c12,101
Nc1ccc2ncnc(NCCc3ccc(Oc4ccccc4)cc3)c2c1,110
Cc1cccc(-c2[nH]c(C(C)(C)C)nc2-c2ccc3c(c2)OCO3)n1,105
O=C(O)c1ccc2c3c1cccc3c(=O)n1c3ccccc3nc21,133
OCC(O)CCON=C1C(c2c(O)[nH]c3ccccc23)=Nc2ccccc21 (centres unmarked),119
CCOC(=O)c1c(C)[nH]c(/C=C2\C(=O)Nc3ccccc32)c1C,101
NCCNc1ncc(C(N)=O)c(Nc2cccc(C(F)(F)F)c2)n1,114
O=C(CCCc1ccc(-c2ccccc2F)cc1)Nc1ccc(O)cc1,101

# Set 4 — method: LC-MS/MS; matrix: plasma
# SMILES: COc1ccc(-c2c(Nc3ccccn3)[nH]c3c(C4=CCCCC4)c(-c4ccccc4)nn3c2=O)cc1
item,host,route,dose,time,setting,plasma concentration
methionine,human cancer patients,,200 mg BID,2 h,"geometric mean, cycle 1 day 200",66300 ng/mL
methionine,human cancer patients,QD,dose not given,2 h,"median, cycle 1 day 50",89200 ng/mL
S-adenosylmethionine,human cancer patients,,50 mg QD,6 h,"mean, cycle 1 day 50",22.3 ng/mL
,human,oral,50 mg once daily,1 h,mean,1160 ng/mL
methionine,human cancer patients,QD,dose not given,4 h,"mean, cycle 1 day 50",64100 ng/mL

# A few entries again (set 2):
target,effect on,method,setting,baseline,remaining binding
"Tyrosine-protein kinase JAK2, JH1 (JAK2, Homo sapiens, UniProt O60674)",cell-free assay,competition with immobilised ligand,,,65%
"MTOR (Homo sapiens, UniProt P42345)",cell-free assay,competition with immobilised ligand,,,100%
"Non-receptor tyrosine-protein kinase TYK2, JH2 (TYK2, Homo sapiens, UniProt P29597)",cell-free assay,competition with immobilised ligand,,,84%
"CDK8 (Homo sapiens, UniProt P49336)",cell-free assay,competition with immobilised ligand,,,87%
"PIK3CA (Homo sapiens, UniProt P42336, C420R)",cell-free assay,competition with immobilised ligand,,,100%
